Measurements gathered from unrelated publications.
Each line is one published result; not all experiments were run side by side. ± gives the spread as reported.

Cc1ccc(C2=Nn3c(N/N=C4/C(=O)Nc5ccc(Br)cc54)nnc3SC2)cc1
number of sensitive cell lines (NCI-60 cell line panel; 10 µM, growth inhibition above 10%): 12

COc1ccc(CCC(=O)Nc2nc3ccc(Cl)cc3s2)cc1OC
phosphatidylcholine increase (HeLa; shotgun lipidomics, item: PC 32:1; 10 µM, 18 h): ≥ 1 mol%

Cc1cc(/C=C2\CN(C(C)C)C/C(=C\c3cc(C)c(O)c(C)c3)C2=O)cc(C)c1O
migration rate (HeLa; wound healing; concentration not given, 24 h, serum-free): 28.5 ± 1.92%

Cc1ccc(C(C)C)cc1.Oc1ccccc1C=NNC1=Nc2ccccc2-c2[nH]c3ccc(Br)cc3c2C1.[Cl-].[Cl][Os+]
apoptotic cells (SW480; annexin V/PI flow cytometry; 20 µM, early plus late apoptosis): 57%

Cc1cc(C)nc(NC(=S)N2CCN(Cc3ccc(C(F)(F)F)cc3)CC2)c1
cytotoxicity (ZR-75-1 and SK-MEL-2; concentration not given, PHGDH-independent lines): not toxic

CCCCCCCCCCCCCC[C@@H](O)[C@@H](O)[C@H](CO[C@H]1O[C@H](CO)[C@H](O)[C@H](O)[C@H]1O)NC(=O)CCCCCCCCCCc1ccc(OC)cc1
IFN-γ/IL-4 ratio (human Vα24+ NKT cells; concentration not given, HeLa-CD1d co-culture; baseline: α-GalCer): 2.19 ± 0.12

COc1ccc(S(=O)(=O)N(CC(=O)O)c2c(C)c(C)c(N(CC(=O)O)S(=O)(=O)c3cccnc3)c(C)c2C)cc1
ROS level (H9c2; flow cytometry DCFH-DA; 10 µM, 12 h, with: LPS 1 µg/mL): decreased

COc1ccc(C2=Nn3c(NN=C4C(=O)N(Cc5ccccc5)c5ccc(Cl)cc54)nnc3SC2)cc1
number of sensitive cell lines (NCI-60 cell line panel; 10 µM, growth inhibition above 10%): 44

COc1cc(CNC(=O)C[C@H](C)CCC=C(C)C)ccc1OCc1cn(-c2cccc(C(F)(F)F)c2)nn1
growth percent (UACC-62 melanoma cells; SRB; 10 µM, 48 h): 72.1%

CO[C@H]1N(OC)c2ccccc2[C@@]12CN=C(Nc1cc(C(F)(F)F)cc(C(F)(F)F)c1)S2 (relative stereo)
S phase cells (HCT-116; PI flow cytometry; 40 µM, 24 h): 7.05 ± 1.35%

CC(=O)OC[C@H]1O[C@@H](Sc2sc(C(=O)c3ccc(C)cc3)c(N)c2-c2nc3ccccc3s2)[C@H](OC(C)=O)[C@@H](OC(C)=O)[C@H]1OC(C)=O
growth (SF-295; SRB; 10 µM, 48 h; baseline: untreated): 96.9%

CC/C=C\C/C=C\C/C=C\C/C=C\C/C=C\C/C=C\CCC(=O)Nc1ccn(C2OC(CO)C(O)C2(F)F)c(=O)n1 (stereo not shown)
TGI (RPMI-8226; NCI60 screen): 26.9 µM

CC1=[N+]2N=C(c3ccccc3)[O][Pd-2]2([Cl])[O+]=C2Oc3ccccc3C=C21 (stereo not shown)
necrotic cells (HeLa; annexin V/PI flow cytometry; IC50, 24 h; baseline: untreated): 3.3 fold

Cc1cc([C@H](C(=O)N2C[C@H](O)C[C@H]2C(=O)N[C@@H](CC(=O)N2CCC(N3CCC(C#Cc4ccc(C(=O)N[C@H]5C(C)(C)[C@H](Oc6ccc(C#N)c(Cl)c6)C5(C)C)cc4)CC3)CC2)c2ccc(-c3scnc3C)cc2)C(C)C)on1
lowest effective concentration (MDA-MB-453, MCF7, MDA-MB-415; colony formation; 240 h, full serum): 100 nM

COc1cc2c(cc1C)NC(=O)C2=Cc1c(Cl)[nH]c2c1ccc1ccccc12
TGI (NCI-60 panel mean; 48 h): 4.79 µM

CCC(=C(c1ccc(Cl)cc1)c1ccc(OCCCN(C)C)cc1)c1ccc(OC)cc1
GI50 (SNB-75; cell growth or viability, SRB): 6.02 µM

COc1c(CC=C(C)C)c(O)cc2c1[C@@H]1Oc3c(ccc(O)c3CC=C(C)C)[C@@H]1CO2
glucose consumption (3T3-L1 adipocytes; activator; up to 100 µM): inactive

COc1cc(CNC(=O)C[C@H](C)CCC=C(C)C)ccc1OCc1cn(-c2ccccc2Cl)nn1
growth percent (K562 leukaemia cells; SRB; 10 µM, 48 h): 44.6%

CCCCCCCCCCCCCCOC(=O)Nc1ccn([C@@H]2O[C@H](CO)[C@@H](O)C2(F)F)c(=O)n1
invading cells (AsPC-1 cells; Transwell invasion; 1 µM, 48 h): 62 ± 20 cells per field

Cc1ccc(NC(=O)c2c(C)oc3ccc(O)c(CN4CCCCCC4)c23)cc1
MYC exon 2 transcription (CA46; exon-specific qPCR; 10 µM, up to 48 h): no effect

COc1cc(CNC(=O)C[C@H](C)CCC=C(C)C)ccc1OCc1cn(-c2ccccc2)nn1
growth percent (UACC-62 melanoma cells; SRB; 10 µM, 48 h): 64.2%

Cc1ccc(=O)n(-c2ccc(NC(=O)[C@H](C)N(C)C)cc2)c1
inhibition (NIH3T3; cell growth or viability, CCK-8; 1 mM): 60.9%

CC(C)[C@H](NC(=O)[C@@H]1CCCN1C(=O)[C@H](CCCNC(=N)N)NC(=O)[C@H](CS)NC(=O)[C@H](Cc1c[nH]c2ccccc12)NC(=O)[C@H](CCCNC(=N)N)NC(=O)[C@@H](Cc1ccccc1)NC(=O)[C@H](Cc1c[nH]cn1)NC(=O)[C@H](CCC(=O)O)NC(=O)[C@H](CS)NC(=O)[C@H](CS)NC(=O)[C@H](CCCCN)NC(=O)[C@@H]1CC(=O)N[C@@H](CCCNC(=N)N)C(=O)NCC(=O)N[C@@H](CC(=O)O)C(=O)N[C@H](Cc2ccc(O)cc2)C(=O)N1)C(N)=O
clonogenic survival decrease (B16/F1; 0.1 µM, 3 h, 37 °C; baseline: untreated): 65%

O=C(N1CCCC1)n1cc(-c2ccc(-c3ccccc3)cc2)nn1
SILAC ratio (mouse T-cells; N-terminal labeled proteins, N-terminal enrichment proteomics, item: PAIP2B; 1 nM, 6 h; baseline: DMSO): 0.97 ± 0.01

CCOC(=O)C1NC(c2ccc[n+](C)c2)C23c4c5c6c7c8c9c(c%10c%11c2c2c4c4c%12c5c5c6c6c8c8c%13c9c9c%10c%10c%11c%11c2c2c4c4c%12c%12c5c5c6c8c6c8c%13c9c9c%10c%10c%11c2c2c4c4c%12c5c6c5c8c9c%10c2c45)C713 (stereo not shown)
protein level (PEL cells; Western blot, item: β-catenin; 20 µM, 8 to 24 h): decreased

COc1ccc([C@@H]2CC(=O)c3c(O)cc(O[C@@H]4O[C@H](CO[C@@H]5O[C@@H](C)[C@H](O)[C@@H](O)[C@H]5O)[C@@H](O[C@H]5O[C@H](CO)[C@@H](O)[C@H](O)[C@H]5O)[C@H](O)[C@H]4O)cc3O2)cc1O
cell count (A549; trypan blue exclusion; 100 µg/mL, 48 h): 13300 ± 468

COc1cc2c(OC3OCC(OC)C(OC)C3OC(=O)c3ccc(Br)cc3)c3c(c(-c4ccc5c(c4)OCO5)c2cc1OC)C(=O)OC3 (stereo not shown)
Bax/Bcl-2 mRNA ratio (FaDu; qRT-PCR; concentration not given, 72 h): increased

COc1c(Cl)c(/C=C(\C)C(=O)O)c(OC)c2ccccc12
viability (NF90-8 and Pa03C reporter cells; alamarBlue; concentration not given): no effect

O=Cc1c(O)ccc2ccccc12
log2 fold change (HUVEC; RNA sequencing, item: GIMAP7; 75 µM, 24 h; baseline: DMSO): -3.08

CCN(CC)C1CCN(Cc2cc(C#CCO)cc(I)c2O)CC1
caspase 3/7 activity (NUGC-4 p53 wild type; 6.25 to 100 µM, 6 h): no effect

COc1cc(CNC(=O)C[C@H](C)CCC=C(C)C)ccc1OCc1cn(-c2ccc(Cl)c(Cl)c2)nn1
growth percent (UACC-62 melanoma cells; SRB; 10 µM, 48 h): 69.3%

CC(CCC(=O)NCc1ccc(C(=O)Nc2ccccc2N)cc1)C1CCC2C3C(O)CC4CC(O)CCC4(C)C3CCC12C (stereo not shown)
histone H3K9 acetylation (cystic cholangiocytes (human); immunoblot; 2 µM, 24 h): increased

COc1cc(CNC(=O)C[C@H](C)CCC=C(C)C)ccc1OCc1cn(-c2ccc(Cl)cc2Cl)nn1
growth percent (NCI-H226; SRB; 10 µM, 48 h): 66.3%

CCCC[C@H](NC(=O)CNC(=O)CNC(=O)CN1CCN(CC(=O)O)CCN(CC(=O)O)CC1)C(=O)N[C@H]1CC(=O)NCCCC[C@@H](C(N)=O)NC(=O)[C@H](Cc2c[nH]c3ccccc23)NC(=O)[C@H](CCCNC(=N)N)NC(=O)[C@@H](Cc2ccccc2)NC(=O)[C@H](Cc2c[nH]cn2)NC1=O [technetium-99m labelled]
blocked uptake (B16/F10; cellular uptake; concentration not given, 2 h, 25 °C, with: unlabelled NDP-MSH 6.07 nmol): ~75%

For quick reference, copied from above:
CO[C@H]1N(OC)c2ccccc2[C@@]12CN=C(Nc1cc(C(F)(F)F)cc(C(F)(F)F)c1)S2 (relative stereo)
S phase cells (HCT-116; PI flow cytometry; 40 µM, 24 h): 7.05 ± 1.35%

COc1c(Cl)c(/C=C(\C)C(=O)O)c(OC)c2ccccc12
viability (NF90-8 and Pa03C reporter cells; alamarBlue; concentration not given): no effect

COc1cc2c(cc1C)NC(=O)C2=Cc1c(Cl)[nH]c2c1ccc1ccccc12
TGI (NCI-60 panel mean; 48 h): 4.79 µM

O=C(N1CCCC1)n1cc(-c2ccc(-c3ccccc3)cc2)nn1
SILAC ratio (mouse T-cells; N-terminal labeled proteins, N-terminal enrichment proteomics, item: PAIP2B; 1 nM, 6 h; baseline: DMSO): 0.97 ± 0.01

Cc1ccc(C2=Nn3c(N/N=C4/C(=O)Nc5ccc(Br)cc54)nnc3SC2)cc1
number of sensitive cell lines (NCI-60 cell line panel; 10 µM, growth inhibition above 10%): 12
